# Published values pooled from the literature.
# FKBP3: FKBP3 1-74 (Homo sapiens, UniProt Q00688)
# Bhlhe40 full length assumed: Bhlhe40 full length assumed (Mus musculus, UniProt O35185)
# Chain of UniProt O35185 (whole entry, looked up): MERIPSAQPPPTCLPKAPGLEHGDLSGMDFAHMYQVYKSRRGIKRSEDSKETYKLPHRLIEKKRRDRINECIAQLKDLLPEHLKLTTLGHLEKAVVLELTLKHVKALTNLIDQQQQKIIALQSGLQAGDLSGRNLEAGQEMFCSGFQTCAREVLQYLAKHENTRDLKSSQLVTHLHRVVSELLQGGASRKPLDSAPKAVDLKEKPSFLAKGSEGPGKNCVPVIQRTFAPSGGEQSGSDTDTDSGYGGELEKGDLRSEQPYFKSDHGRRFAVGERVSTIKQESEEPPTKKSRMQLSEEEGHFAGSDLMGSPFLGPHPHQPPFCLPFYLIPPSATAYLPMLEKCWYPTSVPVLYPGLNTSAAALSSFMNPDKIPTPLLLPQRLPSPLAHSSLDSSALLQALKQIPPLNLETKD
# Chain of UniProt Q92945 (whole entry, looked up): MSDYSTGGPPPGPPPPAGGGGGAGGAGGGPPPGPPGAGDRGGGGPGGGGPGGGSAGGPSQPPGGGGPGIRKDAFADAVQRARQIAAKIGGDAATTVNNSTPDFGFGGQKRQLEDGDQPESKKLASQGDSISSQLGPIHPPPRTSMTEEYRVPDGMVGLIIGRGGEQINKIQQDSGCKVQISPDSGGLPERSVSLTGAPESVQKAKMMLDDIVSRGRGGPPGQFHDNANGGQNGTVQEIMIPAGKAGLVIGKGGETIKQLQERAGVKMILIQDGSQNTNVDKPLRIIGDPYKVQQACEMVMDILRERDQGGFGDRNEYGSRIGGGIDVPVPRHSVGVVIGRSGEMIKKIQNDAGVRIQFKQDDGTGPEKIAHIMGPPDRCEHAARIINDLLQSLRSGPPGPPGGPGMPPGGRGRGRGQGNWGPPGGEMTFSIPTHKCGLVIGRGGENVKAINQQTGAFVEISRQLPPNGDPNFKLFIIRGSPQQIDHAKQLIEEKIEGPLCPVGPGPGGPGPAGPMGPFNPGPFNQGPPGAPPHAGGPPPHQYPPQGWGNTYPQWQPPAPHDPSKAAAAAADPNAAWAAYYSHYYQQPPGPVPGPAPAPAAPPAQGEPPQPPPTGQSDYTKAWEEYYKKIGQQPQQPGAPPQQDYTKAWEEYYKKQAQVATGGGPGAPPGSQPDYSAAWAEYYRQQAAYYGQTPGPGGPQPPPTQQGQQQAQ
# Chain of UniProt P05549 (whole entry, looked up): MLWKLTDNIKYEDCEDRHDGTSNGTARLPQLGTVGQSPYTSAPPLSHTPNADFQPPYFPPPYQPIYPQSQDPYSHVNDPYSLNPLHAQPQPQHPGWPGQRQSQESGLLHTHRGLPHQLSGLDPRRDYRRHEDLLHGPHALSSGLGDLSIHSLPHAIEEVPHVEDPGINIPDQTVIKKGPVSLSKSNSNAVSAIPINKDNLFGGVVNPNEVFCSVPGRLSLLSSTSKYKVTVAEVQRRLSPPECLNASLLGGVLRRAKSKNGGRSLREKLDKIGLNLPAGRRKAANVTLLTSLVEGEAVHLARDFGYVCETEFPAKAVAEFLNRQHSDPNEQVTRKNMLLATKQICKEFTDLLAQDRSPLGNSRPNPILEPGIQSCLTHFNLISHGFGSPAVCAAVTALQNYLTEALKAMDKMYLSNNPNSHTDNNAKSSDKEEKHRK
# Chain of UniProt Q9C5T3 (whole entry, looked up): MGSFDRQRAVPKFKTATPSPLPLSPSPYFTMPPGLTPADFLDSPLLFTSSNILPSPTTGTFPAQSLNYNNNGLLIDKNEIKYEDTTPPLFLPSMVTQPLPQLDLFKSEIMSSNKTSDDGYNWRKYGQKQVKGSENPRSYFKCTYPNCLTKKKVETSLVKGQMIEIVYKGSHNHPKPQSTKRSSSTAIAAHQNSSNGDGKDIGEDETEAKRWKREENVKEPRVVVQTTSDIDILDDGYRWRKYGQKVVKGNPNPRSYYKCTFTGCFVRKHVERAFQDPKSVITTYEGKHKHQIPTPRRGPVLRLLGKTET
# Chain of UniProt Q06348 (whole entry, looked up): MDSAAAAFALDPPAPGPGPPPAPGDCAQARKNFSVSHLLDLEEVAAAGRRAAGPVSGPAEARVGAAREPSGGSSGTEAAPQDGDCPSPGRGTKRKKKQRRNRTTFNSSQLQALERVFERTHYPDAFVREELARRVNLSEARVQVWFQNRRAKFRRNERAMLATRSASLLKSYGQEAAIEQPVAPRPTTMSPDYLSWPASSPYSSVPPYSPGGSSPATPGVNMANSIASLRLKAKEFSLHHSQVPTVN
# Chain of UniProt Q8BL48 (whole entry, looked up): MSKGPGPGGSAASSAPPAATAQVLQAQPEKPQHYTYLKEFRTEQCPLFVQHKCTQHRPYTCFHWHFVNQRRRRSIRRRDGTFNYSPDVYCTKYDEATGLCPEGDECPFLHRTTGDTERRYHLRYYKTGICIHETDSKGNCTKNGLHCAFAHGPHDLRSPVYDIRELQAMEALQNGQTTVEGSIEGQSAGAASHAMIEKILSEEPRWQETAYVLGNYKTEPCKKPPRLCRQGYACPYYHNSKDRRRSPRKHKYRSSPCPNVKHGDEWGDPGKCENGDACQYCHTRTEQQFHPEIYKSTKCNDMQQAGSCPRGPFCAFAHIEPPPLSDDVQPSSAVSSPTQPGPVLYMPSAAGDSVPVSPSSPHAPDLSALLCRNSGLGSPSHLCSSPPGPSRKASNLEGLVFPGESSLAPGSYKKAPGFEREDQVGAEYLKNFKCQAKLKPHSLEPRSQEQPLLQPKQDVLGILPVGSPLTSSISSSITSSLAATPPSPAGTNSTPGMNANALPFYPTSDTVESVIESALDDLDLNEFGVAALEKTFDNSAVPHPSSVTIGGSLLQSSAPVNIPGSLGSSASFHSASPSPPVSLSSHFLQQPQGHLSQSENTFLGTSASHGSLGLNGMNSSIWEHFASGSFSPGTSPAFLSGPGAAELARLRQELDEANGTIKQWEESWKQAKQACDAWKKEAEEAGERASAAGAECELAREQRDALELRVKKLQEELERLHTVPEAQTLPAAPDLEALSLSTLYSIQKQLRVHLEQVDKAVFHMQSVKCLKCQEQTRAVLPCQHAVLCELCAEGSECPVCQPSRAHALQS
Oligonucleotide,target,assay,test system,conditions,binding
GGATGCCG (ssDNA),FKBP3,NMR,single-stranded DNA,,no binding
GAAGATAACGATATTTAAAA (dsDNA (Trichomonas vaginalis); 20-mer duplex),"MYB21 40-156 R84A (Trichomonas vaginalis, UniProt Q58HP3)",ITC,"double-stranded DNA, one strand shown",,no binding
ACGUAGAAAAUUUGCAGCU (ssRNA),"Unk 1-810 (Mus musculus, UniProt Q8BL48)",EMSA,RNA,,binds
GGAUGAGGUAGUAGGUUGUAUAGUUUUAGGGUCACACCCACCACUGGGAGAUAACUAUACAAUCUACUGUCUUUCC (structured RNA),"KHSRP 68-525 (Homo sapiens, UniProt Q92945)",CD titration,folded RNA,,binds
TGTTTTGACCATTTATTAAAATGAACCTTTTCTTGTCAAACAT (dsDNA),"WRKY26 full length assumed (Arabidopsis thaliana, UniProt Q9C5T3)",EMSA,"double-stranded DNA, one strand shown",,binds
TGCTGATTGGCCATGTGCGCTACACCGAGGGGCGGGG (dsDNA),Bhlhe40 full length assumed,"competition with unlabelled DNA, competition EMSA","double-stranded DNA, one strand shown",not purified,binds
GGAUGCCG (ssRNA),FKBP3,NMR,RNA,,no binding
CTGAAGTAATACCCCAGGATGTGAACAT (dsDNA),"TFAP2A full length assumed (Homo sapiens, UniProt P05549)","supershift with antibody, EMSA","double-stranded DNA, one strand shown",,binds
RNA 1 GCCUGAGCUCAGGC / RNA 2 GCCUGAGCUCAGGC (dsRNA 14 bp palindromic duplex),FKBP3,NMR,double-stranded RNA,,binds
CTCTAATTAGTGGTTT (dsDNA),"Prrx2 full length assumed (Mus musculus, UniProt Q06348)",EMSA,"double-stranded DNA, one strand shown","without nuclear extract, not purified",binds
CTGTCAGCCCATGTGGCGTGGCCG (dsDNA),Bhlhe40 full length assumed,EMSA,"double-stranded DNA, one strand shown",not purified,no binding
GAUGGAGAUGGGCCCAUGAAUUGCAUUUUACUUUAAUC (ssRNA),"KHSRP full length assumed (Homo sapiens, UniProt Q92945)",UV crosslinking,RNA,,binds
